Experimental data of several laboratories.
Compare with care: the assays were run in different laboratories. “And” joins repeats or separate records; there may be more than shown. ± gives the spread as reported.

O=C(Nc1cnccc1-c1ccc([18F])nc1)c1ccnc(NC(=O)C2CC2)c1  SUV (FVB/NJ mice (both sexes), lung; intravenous, dose not given, 120 min): 0.113
COc1ccc2c(c1)CCn1c[n+]3c(c1-2)-c1ccc(OC)cc1CC3  MCHC (female NSG mice, blood; 6 mg/kg, day 20, 5 days per week): 32.2 ± 0.74 g/dL
CCCCN1C(=O)c2cccc3c(NCCCCCCCCN4CCOCC4)ccc(c23)C1=O  absorption maximum (DMSO): 444 nm
Cc1c(Cc2cccc(OC(C)(C)C(=O)O)c2)c2ccc(C(=O)N[C@H](C)c3cccc(C(C)(C)C)c3)cc2n1C  half-life (metabolic stability; mouse, liver microsomes): 31.3 min
CCCCN1C(=O)c2cccc3c(NCCCN4CCOCC4)ccc(c23)C1=O  absorption maximum (DMF): 441 nm
COc1cccc(OC)c1-c1cc(C(=O)NC2(C(=O)O)C3CC4CC(C3)CC2C4)nn1-c1ccc(C(=O)N(C)CCOCCN(C)C(=O)[C@H](CCCCNC(=O)[C@H](CC(C)C)NC(=O)C2OC2C(=O)O)NC(=O)CN2CCN(CC(=O)[O-])CCN(CC(=O)[O-])CCN(CC(=O)[O-])CC2)cc1C(C)C.[177Lu+3] (mixture of isomers)  tumour-to-liver ratio (mouse, HT-29 xenograft; 4 h post injection, biodistribution; relative to: tumour over liver uptake): 3.53
CCCCN1C(=O)c2cccc3c(NCCCCN4CCOCC4)ccc(c23)C1=O  absorption maximum (water; pH 6.0): 449 nm
Cc1cc(Cl)cc([S+](C)[O-])c1NC(=O)c1cc(Br)nn1-c1ncccc1Cl (centres unmarked)  pKa (potentiometric): 8.9
CN(O)C(=O)CCC(=O)NCCCN(CCCCN(CCCNC(=O)CCC(=O)N(C)O)C(=O)CCC(=O)N(C)O)C(=O)CCC(=O)N(C)O.[89Zr]  tracer uptake (mouse, liver; 24 h): 0.04 %ID/g
CC(C)(C)NCC(SS(=O)(=O)O)c1ccccc1 (centres unmarked)  body weight (Swiss Webster mice, Schistosoma mansoni-infected; 600 mg/kg single dose on day 15 post-infection, perfusion day 44 post-infection): 32.2 g
CCCCCCCCCCCCCCCC(=O)N[C@@H](CCC(=O)NCCCC[C@H](NC(=O)[C@H](CCC(N)=O)NC(=O)[C@H](Cc1c[nH]cn1)NC(=O)[C@@H](NC(=O)[C@H](CCCCN)NC(=O)[C@H](CC(=O)O)NC(=O)[C@H](CCSC)NC(=O)[C@H](C)NC(=O)[C@@H](NC(=O)[C@H](CO)NC(=O)[C@H](Cc1ccc(O)cc1)NC(=O)[C@H](CC(=O)O)NC(=O)[C@H](CO)NC(=O)[C@@H](NC(=O)[C@H](Cc1ccccc1)NC(=O)[C@@H](NC(=O)CNC(=O)[C@H](CCC(=O)O)NC(=O)[C@H](C)NC(=O)[C@H](Cc1ccc(O)cc1)NCC(F)(F)F)[C@@H](C)O)[C@@H](C)CC)[C@@H](C)CC)[C@@H](C)CC)C(=O)N[C@@H](CC(=O)O)C(=O)N[C@@H](Cc1ccccc1)C(=O)N[C@H](C(=O)N[C@@H](CC(N)=O)C(=O)N[C@@H](Cc1c[nH]c2ccccc12)C(=O)N[C@@H](CC(C)C)C(=O)N[C@@H](CC(C)C)C(=O)N[C@@H](C)C(=O)N[C@@H](CCC(N)=O)C(=O)N[C@@H](CCCCN)C(=O)NCC(=O)N[C@@H](CCCCN)C(=O)N[C@@H](CCCCN)C(=O)N[C@@H](CC(N)=O)C(=O)N[C@@H](CC(=O)O)C(=O)N[C@@H](Cc1c[nH]c2ccccc12)C(=O)N[C@@H](CCCCN)C(=O)N[C@@H](Cc1c[nH]cn1)C(=O)N[C@@H](CC(N)=O)C(=O)N[C@H](C(=O)N[C@H](C(=O)N[C@@H](CCC(N)=O)C(=O)O)[C@@H](C)O)[C@@H](C)CC)C(C)C)C(=O)O  serum concentration (GIPR luciferase bioassay; C57BL/6 mice, male, serum; subcutaneous, 1.25 µg, 1 h, below detection limit): 25 nM
C/C(N)=N/C(=N\S(=O)(=O)c1ccc(C(F)(F)F)cc1)N1C[C@H](c2ccccc2)C(c2ccc(Cl)cc2)=N1  Tmax (male C57BL/6 mouse, liver; intravenous, 10 mg/kg): 15 min
C=C[C@]1(C)C[C@@H](OC(=O)CSc2ccc(NC(=O)c3ccco3)cc2)[C@]2(C)[C@H](C)CC[C@]3(CCC(=O)[C@H]32)[C@@H](C)[C@@H]1O  central volume (V1/F) (M. gallisepticum-infected chickens, plasma; intramuscular, 5 mg/kg single dose): 7.39 L/kg
O=C(Nc1cnccc1-c1ccc([18F])cc1)c1ccnc(NC(=O)C2CC2)c1  SUV (ex vivo gamma counting; FVB/NJ mice, both sexes, thalamus; intravenous, 120 min, mean, P-gp inhibitor pretreatment, added: tariquidar 15 mg/kg iv): 0.3
CN(CCNCc1cc(C(=O)[O-])ccc1[O-])CCNCc1cc(C(=O)[O-])ccc1[O-].[Cl-].[Fe+3].[K+].[K+]  relaxivity change (mouse serum; 0.20 mM, 4 h, outcome no effect): no effect
COc1cc(N2CCN(C(=O)C3CCCN3)CC2)ccc1Nc1ncc(Cl)c(Nc2ccccc2P(C)(C)=O)n1 (centres unmarked)  body weight (nude mice, NCI-H3122 xenograft; intraperitoneal, 10 mg/kg every other day, day 3): 25.8 g and 22 g and 23.8 g and 23.5 g and 23 g
C=C(NC(=O)c1csc(-c2nc3c(cc2O)-c2nc(cs2)C(=O)NC(C(C)O)C(=O)NC(=C(C)OC)c2nc(cs2)C(=O)NC2c4nc(cs4)C(=O)NC(COC(=O)c4c5c6c(cccc6n4O)COC(=O)C(OC4CC(C)(O)C(N(C)C)C(C)O4)C2OC5)c2nc-3cs2)n1)C(N)=O (centres unmarked)  MRT(0-last) (cynomolgus monkey, female, plasma; intravenous infusion, 9 mg/kg single dose): 101 min
CN1CCC[C@]1(C)/C=C/S(=O)(=O)NC(=O)Nc1c2c(cc3c1CCC3)CC=C2  AUC(0-tau) (human, plasma; oral, 50 mg twice daily of parent drug, day 1, metabolite of dosed drug): 139 µg·h/mL
CN([O-])C(=O)CN1CCN(CC(=O)N(C)[O-])CCN(Cc2ccccn2)CC1.[89Zr+4]  tracer uptake (mouse, muscle; intravenous, 24 h): 0.26 %ID/g
CCCCN1C(=O)c2cccc3c(NCCCCCN4CCOCC4)ccc(c23)C1=O  absorption maximum (ethylene glycol): 448 nm
CN1CCC[C@]1(C)/C=C/S(=O)(=O)NC(=O)Nc1c2c(cc3c1CCC3O)CCC2 (some centres unmarked)  AUC(0-tau) (human, plasma; oral, 12.5 mg twice daily of parent drug, day 14, metabolite of dosed drug): 113 µg·h/mL
CC(C)(C)[C@H](NC(=O)C(F)F)C(=O)N1C[C@H]2[C@@H]([C@H]1C(=O)N[C@H](C#N)C[C@@H]1CCCNC1=O)C2(C)C  intrinsic clearance (human hepatocytes; scaled to liver): < 8.9 mL/min/kg
Cc1nc(N)nc2c1C(=O)N[C@@H](c1ccc(F)cc1-c1cccc(O[11CH3])n1)C2  tracer uptake (ex vivo biodistribution; mice, MDA-MB-231 subcutaneous xenograft, pancreas; 60 min post-injection, baseline, vehicle pre-treatment): 2.4 ± 0.1 %ID
O=C(O)/C=C\c1cc2ccoc2cc1O[C@@H]1O[C@H](CO)[C@@H](O)[C@H](O)[C@H]1O  accuracy (post-procedure stability; rat plasma; 1000 ng/mL, 3 h, room temperature): 112%
Cc1cc(-c2ccc(C(=O)[C@@H]3CCCC[C@H]3C(=O)Nc3cnn4c3C(=O)NCC4)cc2)[nH]n1  cumulative recovery of radioactivity (human, faeces; oral, 200 mg, 0-96 h; relative to: dose): 61.1%
CC(C)(F)CC(NC(c1ccc(-c2ccc(S(C)(=O)=O)cc2)cc1)C(F)(F)F)C(=O)NCC#N (centres unmarked)  GSH adduct formation (PBS; 100 µM, 23 h, pH 7.45, 37 °C, added: GSH 5 mM): < 1%
O=Cn1nnc2ccccc21  degradation rate constant (chemical stability, HPLC-MS; borate buffered saline; pH 10.2, no N-acetyl-lysine): 0 h⁻¹
CCCC[C@H](NC(=O)CCCCCCCNC(=O)CN1CCN(CC(=O)O)CCN(CC(=O)O)CC1)C(=O)N[C@H]1CC(=O)NCCCC[C@@H](C(N)=O)NC(=O)[C@H](Cc2c[nH]c3ccccc23)NC(=O)[C@H](CCCNC(=N)N)NC(=O)[C@@H](Cc2ccccc2)NC(=O)[C@H](Cc2c[nH]cn2)NC1=O [fluorine-18 labelled]  urinary excretion (C57 mice B16/F10 melanoma, urine; intravenous, dose not given, 1 h, added: NDP-MSH 10 µg blockade): 77 ± 3.84%
CCOC(=O)CNC(=O)CN1CCN(CC(=O)NCC(=O)OCC)CCN(CC(=O)NCC(=O)OCC)CCN(CC(=O)NCC(=O)OCC)CC1.[177Lu+3]  biodistribution (Sprague-Dawley rat, bone; intravenous, dose not given, 2 h): 2.75 ± 1.14 % injected dose/organ

Repeated from above:
COc1ccc2c(c1)CCn1c[n+]3c(c1-2)-c1ccc(OC)cc1CC3  MCHC (female NSG mice, blood; 6 mg/kg, day 20, 5 days per week): 32.2 ± 0.74 g/dL
CCCCN1C(=O)c2cccc3c(NCCCCCCCCN4CCOCC4)ccc(c23)C1=O  absorption maximum (DMSO): 444 nm
